Experimental data of several laboratories.
Parts stem from different laboratories: compare values within a part only. Positions count from the first letter of the parent shown.

Study 1 — technique: protein binding microarray; molecule type: double-stranded DNA, one strand shown; sample: in vitro; concentration: not given; baseline: not given; reading: higher = stronger binding
Target: Histone acetyltransferase KAT6A, winged helix 1, GST fusion (KAT6A, Homo sapiens, UniProt Q92794, residues 1-85)
Notes: 8-mer, flanks averaged, mean of 2 arrays, mostly near background
Target sequence (chain): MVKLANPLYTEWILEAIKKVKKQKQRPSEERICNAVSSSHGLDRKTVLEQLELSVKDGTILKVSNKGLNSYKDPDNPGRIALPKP
`ATACGTAG` has an E-score of -0.0224.
`AGGGCGGC` has an E-score of 0.345.
With `AATAAACC` the E-score was -0.0735.
With `GCTCACAC` the E-score was -0.0952.
The E-score of `AATGCGAT` is reported as -0.0437.
The E-score of `CGGTTCGA` is reported as 0.0947.
For `GTTTAAAC`, the E-score was 0.141.
For `CGCATCAA`, the E-score was 0.168.

Study 2 — technique: RNA Bind-n-Seq; molecule type: RNA; sample: in vitro; concentration: 200 nM; notes: whole 134-nt RNA, ends assumed; added: 150 mM KCl; baseline: input library; reading: higher = stronger binding
Target: Ras GTPase-activating protein-binding protein 1, full length (G3BP1, Homo sapiens, UniProt Q13283)
Sequence of UniProt Q13283 (whole entry, looked up): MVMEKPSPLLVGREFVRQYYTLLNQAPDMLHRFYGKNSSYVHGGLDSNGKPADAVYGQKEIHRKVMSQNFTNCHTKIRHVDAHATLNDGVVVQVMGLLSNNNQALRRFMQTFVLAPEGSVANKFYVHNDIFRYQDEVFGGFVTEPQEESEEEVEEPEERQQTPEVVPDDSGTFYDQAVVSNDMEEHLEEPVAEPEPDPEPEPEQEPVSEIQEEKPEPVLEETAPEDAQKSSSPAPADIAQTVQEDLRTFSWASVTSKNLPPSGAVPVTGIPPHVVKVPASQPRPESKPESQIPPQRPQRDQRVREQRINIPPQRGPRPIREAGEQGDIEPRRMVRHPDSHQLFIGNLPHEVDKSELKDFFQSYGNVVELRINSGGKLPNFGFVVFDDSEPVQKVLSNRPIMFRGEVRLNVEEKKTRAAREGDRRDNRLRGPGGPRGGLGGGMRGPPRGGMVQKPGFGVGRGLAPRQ
Constant ends, left off below: GGGAGUUCUACAGUCCGACGAUC … UGGAAUUCUCGGGUGUCAAGG
With `UUUCACAGAGAAGCAAAUGCUGGCACAAGGAUACCCUGCUUACACGACAUCGUGCGCCUGGCUGGGGUACUCAGAUGACACGUUGAAGCA` the log2 enrichment was -0.474.
With `UAACUUUAGAAGAGGAUCUGAUGGAUAUGGCAGUGGACGUGGAUUUGGGGAUGGCUAUAAUGGGUAUGGAGGAGGACCUGGAGGUGGCAA` the log2 enrichment was 0.418.
`UCAAGUCCUGUGCUACACAUCGUAUGUACCGAAUCGGUGGUUUGGAAAAAAAGGAAAGUAUUAUGUUACGCCGUUCGGAUCUGCACUUCC` gave a log2 enrichment of -0.789.
`UGGAAUAAGCCUGGUGCUUUCUGGCUAUGUUUGUCAUAGGCUGACCUGGAUAUCACCGAAAUAAACAAACUAACAGCAGAAGCUAUUCAG` gave a log2 enrichment of -0.621.
`CCUGUGCUACACAUCGUAUGUACCGAAUCGGGGAAAAAGGGGUUUGGGGUUUUUUUGGGGAAAGUAUUAUGUUACGCCGUUCGGAUCUGC` has a log2 enrichment of 0.25.
For `UGUGCUACACAUCGUAUGUACCGAAUCGGGGAAAAAAAGGGGUUUUUGGGGAAAAAAAGGGGAAAGUAUUAUGUUACGCCGUUCGGAUCU`, the log2 enrichment was -0.307.
The log2 enrichment of `UCAAGUCCUGUGCUACACAUCGUAUGUACCGAAUCGGGUUUGGGUUUGGGAGGGAAAGUAUUAUGUUACGCCGUUCGGAUCUGCACUUCC` is reported as 1.03.
With `UGCUUGUUCUGGAGUGAUCUUCUGACUGGAAAAGAACUAUGUCAUGGAUCAAGGAAGGAGAGCUGUCACUUUGGGAGCGGUUCUGUGCCA` the log2 enrichment was 0.714.

Study 3 — target: CCNE2, cyclin fold, Cln2 fusion (human); technique: yeast growth competition, sequencing; sample: yeast; notes: weak parent motif; baseline: not given; reading: higher = stronger binding
Parent: PKN2 docking peptide (human); VSAVQKLDFSDTM; partner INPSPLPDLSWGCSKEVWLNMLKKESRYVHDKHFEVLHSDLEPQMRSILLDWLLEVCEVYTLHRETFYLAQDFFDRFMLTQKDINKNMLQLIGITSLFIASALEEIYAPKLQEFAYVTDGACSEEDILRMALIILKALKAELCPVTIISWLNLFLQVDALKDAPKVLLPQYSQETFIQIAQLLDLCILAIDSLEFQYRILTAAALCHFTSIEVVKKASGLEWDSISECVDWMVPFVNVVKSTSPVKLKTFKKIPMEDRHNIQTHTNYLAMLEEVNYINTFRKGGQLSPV
`D8F`: “normalised enrichment score” 0.0888.
For `V1Q`, “normalised enrichment score” read 0.311.
For `S2T`, “normalised enrichment score” read 0.399.
`S2A`: “normalised enrichment score” 0.587.
For `V4D`, “normalised enrichment score” read -0.503.
`M13S` — result for “normalised enrichment score”: 0.618.
Under “normalised enrichment score”, `V4C` is recorded as -0.236.
`A3I` — result for “normalised enrichment score”: 0.35.
For `A3H`, “normalised enrichment score” read 0.634.
`T12R`: “normalised enrichment score” 0.286.
For `K6Y`, “normalised enrichment score” read -0.736.
`M13D` — result for “normalised enrichment score”: -0.191.
`D11V` — result for “normalised enrichment score”: 0.438.
`L7N` — result for “normalised enrichment score”: 0.245.
`M13A` — result for “normalised enrichment score”: 0.0615.
`V4Q`: “normalised enrichment score” -0.38.
For `D11F`, “normalised enrichment score” read -0.167.
`D8T` — result for “normalised enrichment score”: -0.524.

Study 4 — technique: RNA Bind-n-Seq; molecule type: RNA; sample: in vitro; concentration: 365 nM; baseline: no-protein control; reading: higher = stronger binding
Target: RNA binding protein fox-1 homolog 2, RRM domain, GST-SBP tag (RBFOX2, Homo sapiens, UniProt O43251-10, residues 100-194)
Notes: natural RNA segment, single round, ends assumed
Constant ends, left off below: GGGAGUUCUACAGUCCGACGAUC … UGGAAUUCUCGGGUGCCAA
Construct (chain): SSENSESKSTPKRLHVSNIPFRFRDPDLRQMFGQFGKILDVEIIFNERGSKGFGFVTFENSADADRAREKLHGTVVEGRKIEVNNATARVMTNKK
Under “RBNS enrichment (R)”, `UUCUUCAUAGAGGAAACAAUGUGCCAGUCUUAUUCUUUUCUUCAACAACCUUGACUUCCAUGGAGGAAGUGCUGGCCCCAAGGGGUCUGACACAAAGACGGGAAACCCAG` is recorded as 0.331.
`CCAAGUGCCUUUGCUAUGUUUUUAUAUCCUGGACUGGAGGUUUAUUUUUAAUAUAUAUUAUCUAAGGAAAGAUCUGUGUGUGUGAGGGCGUUGGGCAGUGCGCCCCAUGU` — result for “RBNS enrichment (R)”: 1.36.
Under “RBNS enrichment (R)”, `UAAGUAAAACAGCAGUGUACAUAUGUGUGUACAGGACACCAAGACUCGCAGGCAGGCCUGAGAGCCCCAGCCACUCUUCCGGCCCUCGGCGGACCUGCAGAUGACCUGGA` is recorded as 0.406.
Under “RBNS enrichment (R)”, `GGCAAUCAUUUUGAAUACUGUUCUGUGACCCUGACUGCUAGUUCUGAGGACACUGGUGGCUGUGCUAUGUGUGGCCAUCCUCCAUGUCCCGUCCCUGUAGCUGCUCUGUU` is recorded as 0.317.
`AGGGACAGGUGGGAGAAUGGGUGUAGGAGGCAGGCCCCAGGCUCUGCUUCUUGGUGACAGUUGGCCAGAGCCCUGUAUGCUUUGAUUUUUUUGUACUUAAAAAGAAAAAA`: “RBNS enrichment (R)” 0.988.
`UGGACUAUGCUGGCAAGGACUUUGUUUACGAUCAAAUUGUACUAGUGUCUGCAGGGUUUGUCAGUACUCGUCAAAGCCAAGUCCAAUUAAAAAAAAAAGUCUUUGCCCUC`: “RBNS enrichment (R)” 0.636.

A few entries again (study 2):
With `UAACUUUAGAAGAGGAUCUGAUGGAUAUGGCAGUGGACGUGGAUUUGGGGAUGGCUAUAAUGGGUAUGGAGGAGGACCUGGAGGUGGCAA` the log2 enrichment was 0.418.
`UCAAGUCCUGUGCUACACAUCGUAUGUACCGAAUCGGUGGUUUGGAAAAAAAGGAAAGUAUUAUGUUACGCCGUUCGGAUCUGCACUUCC` gave a log2 enrichment of -0.789.
`UGGAAUAAGCCUGGUGCUUUCUGGCUAUGUUUGUCAUAGGCUGACCUGGAUAUCACCGAAAUAAACAAACUAACAGCAGAAGCUAUUCAG` gave a log2 enrichment of -0.621.
`CCUGUGCUACACAUCGUAUGUACCGAAUCGGGGAAAAAGGGGUUUGGGGUUUUUUUGGGGAAAGUAUUAUGUUACGCCGUUCGGAUCUGC` has a log2 enrichment of 0.25.
For `UGUGCUACACAUCGUAUGUACCGAAUCGGGGAAAAAAAGGGGUUUUUGGGGAAAAAAAGGGGAAAGUAUUAUGUUACGCCGUUCGGAUCU`, the log2 enrichment was -0.307.
The log2 enrichment of `UCAAGUCCUGUGCUACACAUCGUAUGUACCGAAUCGGGUUUGGGUUUGGGAGGGAAAGUAUUAUGUUACGCCGUUCGGAUCUGCACUUCC` is reported as 1.03.
